Results of several laboratories.
Lines come from different studies, so protocols differ. ± gives the spread as reported.

`[Cl][Os][Ge]([Cl])([Cl])[Cl].c1ccc(P(c2ccccc2)c2ccccc2)cc1.c1ccccc1` has an IC50 of 141 ± 1.5 µM (peripheral blood mononuclear cells; cell viability, MTT; 24 h).
For `Cc1ccnc(-c2cc(C)ccn2)c1.[C-]#[O+].[C-]#[O+].[C-]#[O+].[Re+]`, the IC50 was 10.7 ± 0.5 µM (MRC-5; cell viability).
`C[C@H]1O[C@@H](O[C@H]2[C@@H](O)C[C@H](O[C@H]3[C@@H](O)C[C@H](O[C@H]4CC[C@@]5(C)[C@H](CC[C@@H]6[C@@H]5C[C@@H](O)[C@]5(C)[C@@H](C7=CC(=O)OC7)[C@@H](O)C[C@]65O)C4)O[C@@H]3C)O[C@@H]2C)C[C@H](O)[C@@H]1O` has an IC50 of 1.24 µM (BEAS-2B; cell growth or viability, MTT; 48 h).
The IC50 of `C[C@H]1C(OCCCCCCC[P+](c2ccccc2)(c2ccccc2)c2ccccc2)O[C@@H]2O[C@@]3(C)CCC4[C@H](C)CCC1[C@]42OO3` (stereo partly shown) is reported as 0.0605 µM (T24; cell growth or viability, MTT; 72 h).
For `CC(C)C[C@H](NC(=O)[C@H](CCCCN)NC(=O)[C@H](CC(C)C)NC(=O)[C@H](CC(C)C)NC(=O)[C@H](CCCCN)NC(=O)[C@H](CCCCN)NC(=O)[C@H](CC(C)C)NC(=O)[C@H](CC(C)C)NC(=O)[C@H](CCCCN)NC(=O)[C@H](CC(C)C)NC(=O)[C@H](CC(C)C)NC(=O)[C@H](CCCCN)NC(=O)[C@H](CCCCN)NC(=O)[C@H](CC(C)C)NC(=O)[C@@H](N)CSSC[C@H](N)C(=O)N[C@@H](CC(C)C)C(=O)N[C@@H](Cc1c[nH]cn1)C(=O)N[C@@H](CCC(=O)O)C(=O)N[C@@H](CC(C)C)C(=O)N[C@@H](CC(C)C)C(=O)N[C@@H](CCC(=O)O)C(=O)N[C@@H](Cc1c[nH]cn1)C(=O)N[C@@H](CC(C)C)C(=O)N[C@@H](Cc1c[nH]cn1)C(=O)N[C@@H](CCC(=O)O)C(=O)N[C@@H](CC(C)C)C(=O)N[C@@H](CC(C)C)C(=O)N[C@@H](CCC(=O)O)C(=O)N[C@@H](Cc1c[nH]cn1)C(N)=O)C(N)=O`, the IC50 was 13.1 µM (4T1; cell growth or viability, MTT; pH 6).
For `O=C1CC2(C1)C(=O)[O][Pt]1([Cl])([O]C(=O)C(F)(F)F)([NH][C@@H]3CCCC[C@H]3[NH]1)[O]C2=O`, the IC50 was 8.73 µM (SGC-7901; cell growth or viability, MTT).
The IC50 of `OC[C@H]1[C@@H](O)[C@@H](O)CN1Cc1ccc(I)cc1` is reported as over 200 µM (HCT116 p53-/-; MTS; 72 h).
`C[C@H]1C(OCCCC[P+](c2ccccc2)(c2ccccc2)c2ccccc2)O[C@@H]2O[C@@]3(C)CCC4[C@H](C)CCC1[C@]42OO3` (stereo partly shown) has an IC50 of 0.357 µM (T24; cell growth or viability, MTT; 72 h).
For `CCOC(=O)[C@@H]1Cc2c(cc([N+](=O)[O-])cc2[N+](=O)[O-])[C@H](O)[C@]12C(=O)Nc1ccc(Cl)cc12` (single isomer, unassigned), the IC50 was 6.1 µM (U-87 MG; cell growth or viability, MTT; 24 h).
`C1=CCCC=CCC1.C1=CCCC=CCC1.O=C(N=P12CN3CN(CN(C3)C1)C2)c1cccc[c]1[Pt+].O=C(N=P12CN3CN(CN(C3)C1)C2)c1cccc[c]1[Pt+].[Cl][Hg-]([Cl])[Cl].[Cl][Hg-]([Cl])[Cl].[Cl][Hg][Cl].[Cl][Hg][Cl]` has an IC50 of 7.53 µM (MIA PaCa-2; cell growth or viability, MTT; 24 h).
`O=C(O)c1ccc([S][Au][PH](c2ccccc2)(c2ccccc2)[c-]2cccc2)cc1.[Fe+2].c1cc[cH-]c1` has an IC50 of 3.78 ± 0.13 µM (renal proximal tubule cells; cytotoxicity, XTT; 72 h).
The IC50 of `CCc1c2c(nc3ccc(OC(=O)CCC(=O)O)cc13)-c1cc3c(c(=O)n1C2)COC(=O)[C@]3(O)CC` is reported as 0.566 µM (CT26; cell growth or viability, MTT; 48 h).
`COc1cc(C=CC(=O)CC(=O)C=Cc2ccc(OC(=O)CCC(=O)OC3OC4OC5(C)CCC6C(C)CCC(C3C)C46OO5)c(OC)c2)ccc1OC(=O)CCC(=O)OC1OC2OC3(C)CCC4C(C)CCC(C1C)C24OO3` (stereo not shown) has an IC50 of 2.41 ± 0.8 µM (SK-MEL3; cell viability, MTT; 24 h, without deferoxamine).
`CCOC(=O)[C@@H]1Cc2c(cc([N+](=O)[O-])cc2[N+](=O)[O-])[C@H](O)[C@]12C(=O)Nc1ccc(Br)cc12` gave an IC50 of 5.8 µM (U-251; cell growth or viability, MTT; 24 h).
`Cc1cc(C)c(-n2ccn(-c3c(C)cc(C)cc3C)c2=[Se])c(C)c1.[Cl][Au]` gave an IC50 of 0.5 ± 0.05 µM (H157 lung carcinoma cells; cell viability, MTT; 72 h).
With `C[C@H](NC(=O)[C@H](CCCNC(=N)N)NC(=O)[C@H](CCCNC(=N)N)NC(=O)[C@@H]1CCCN1C(=O)CNC(=O)[C@H](CCCNC(=N)N)NC(=O)[C@H](CCCNC(=N)N)NC(=O)CN)C(=O)N[C@@H](CC(N)=O)C(=O)N[C@@H](CCC(N)=O)C(=O)N[C@@H](CC(N)=O)C(=O)NCC(=O)N[C@H](C(=O)N[C@@H](CCCNC(=N)N)C(=O)N[C@@H](CCCNC(=N)N)C(=O)N[C@@H](CCCNC(=N)N)C(=O)N[C@@H](CCCNC(=N)N)C(=O)N[C@@H](CCCNC(=N)N)C(=O)N[C@@H](CCCNC(=N)N)C(=O)N[C@H](C(N)=O)[C@@H](C)O)[C@@H](C)O` the IC50 was over 100 µM (Hs68; cell viability, CellTiter-Blue; 24 h, serum-free medium).
The IC50 of `O=C(C[P+]([Au-][Cl])(c1ccccc1)c1ccccc1)[O][Ti+2][O]C(=O)C[P+]([Au-][Cl])(c1ccccc1)c1ccccc1.c1cc[cH-]c1.c1cc[cH-]c1` is reported as 1.4 µM (UO-31; cell viability, XTT; 72 h).
For `CCCCc1ccc(S(=O)(=O)N2CC2C(=O)OC)cc1` (stereo not shown), the IC50 was 104 µM (HT-1080; cell growth or viability, MTT; 48 h).
`CC(=O)N[C@@H](Cc1c[nH]cn1)C(=O)N[C@@H](C)C(=O)N1CCC[C@H]1C(=O)N1CCC[C@H]1C(=O)N[C@@H](CC(C)C)C(=O)N[C@@H](Cc1c[nH]cn1)C(=O)N[C@@H](CO)C(=O)N[C@H](C(=O)N[C@@H](C)C(N)=O)[C@@H](C)OP(=O)(O)O` gave an IC50 of 0.84 µM (U-266; cell growth or viability, MTT; 72 h).
The IC50 of `CC(C)C[C@H](NC(=O)[C@H](CCCCN)NC(=O)[C@H](CC(C)C)NC(=O)[C@H](CC(C)C)NC(=O)[C@H](CCCCN)NC(=O)[C@H](CCCCN)NC(=O)[C@H](CC(C)C)NC(=O)[C@H](CC(C)C)NC(=O)[C@H](CCCCN)NC(=O)[C@H](CC(C)C)NC(=O)[C@H](CC(C)C)NC(=O)[C@H](CCCCN)NC(=O)[C@H](CCCCN)NC(=O)[C@H](CC(C)C)NC(=O)[C@@H](N)CSSC[C@H](N)C(=O)N[C@@H](CC(C)C)C(=O)N[C@@H](CCC(=O)O)C(=O)N[C@@H](Cc1c[nH]cn1)C(=O)N[C@@H](CC(C)C)C(=O)N[C@@H](CC(C)C)C(=O)N[C@@H](CCC(=O)O)C(=O)N[C@@H](Cc1c[nH]cn1)C(=O)N[C@@H](CC(C)C)C(=O)N[C@@H](CCC(=O)O)C(=O)N[C@@H](Cc1c[nH]cn1)C(=O)N[C@@H](CC(C)C)C(=O)N[C@@H](CC(C)C)C(=O)N[C@@H](CCC(=O)O)C(=O)N[C@@H](Cc1c[nH]cn1)C(N)=O)C(N)=O` is reported as 14 µM (4T1; cell growth or viability, MTT; pH 6).
For `COc1cccc2c1C(=O)c1c(O)c3c(c(O)c1C2=O)C[C@@](O)(C(=O)CO)C[C@@H]3O[C@H]1C[C@H](NC(=O)CCN2C(=O)CC(SC[C@H](N)C(=O)N3CCC[C@H]3C(=O)N[C@@H](CCCCN)C(=O)N[C@@H](CCCCN)C(=O)N[C@@H](CCCCN)C(=O)N[C@@H](CCCNC(=N)N)C(=O)N[C@@H](CCCCN)C(=O)N[C@H](C(N)=O)C(C)C)C2=O)[C@H](O)[C@H](C)O1` (stereo partly shown), the IC50 was 6.23 ± 0.37 µM (MCF7, doxorubicin-sensitive; cytotoxicity, CCK-8; 48 h).
For `CC(C)[C@@H]1NC(=O)[C@H](C)OC(=O)[C@@H](C(C)C)NC(=O)[C@@H](C(C)C)OC(=O)[C@H](C(C)C)NC(=O)[C@H](C)OC(=O)[C@@H](C(C)C)NC(=O)[C@@H](C(C)C)OC(=O)[C@H](C(C)C)NC(=O)[C@H](C)OC(=O)[C@@H](C(C)C)NC(=O)[C@H](C)OC1=O`, the IC50 was 0.2 µM (U-87 MG; cell growth or viability, SRB; 72 h).
`COc1cc(/C=C(\C#N)C(=O)Nc2nnc(C(F)(F)F)s2)ccc1OC(=O)N1CCN(C(=O)CCCC(=O)NCCCC[C@@H]2NC(=O)[C@@H](Cc3ccc(O)cc3)NC(=O)[C@H](CC(=O)O)NC(=O)CNC(=O)[C@H](CCCNC(=N)N)NC2=O)CC1` has an IC50 of over 100 µM (HCC827; cell growth, MTT; 48 h).
`[Cl][Au].[Se]=c1n(C2CCCCC2)ccn1C1CCCCC1` gave an IC50 of 4.4 µM (HCT-15; cell growth or viability, MTT; 72 h).
The IC50 of `C[C@@H]1N=C(c2ccccc2)c2cc(C#CCCCC(=O)NO)ccc2N(C)C1=O` is reported as 4.5 µM (U-937; apoptosis, flow cytometry; 48 h).
`Cc1ccc(C(C)C)cc1.Clc1ccc2c(NCCNCc3ccccn3)ccnc2c1.[Cl-].[Cl][Ru+]` has an IC50 of over 160 µM (CHO; cytotoxicity, MTT).
For `CC(C)C[C@H](NC(=O)[C@H](CC(C)C)NC(=O)[C@H](CCC(=O)O)NC(=O)[C@H](CCC(=O)O)NC(=O)[C@H](CC(C)C)NC(=O)[C@H](Cc1c[nH]cn1)NC(=O)[C@H](Cc1c[nH]cn1)NC(=O)[C@H](CC(C)C)NC(=O)[C@H](CC(C)C)NC(=O)[C@H](CCC(=O)O)NC(=O)[C@H](CCC(=O)O)NC(=O)[C@@H](N)CC(C)C)C(=O)N[C@@H](Cc1c[nH]cn1)C(=O)N[C@@H](Cc1c[nH]cn1)C(N)=O`, the IC50 was over 100 µM (4T1; cell growth or viability, MTT; pH 6).
The IC50 of `C[C@H]1[C@H](OC(=O)CCC(=O)OCCc2ccc(O)cc2)O[C@@H]2O[C@@]3(C)CC[C@H]4[C@H](C)CC[C@@H]1[C@@]24OO3` is reported as 1.28 ± 0.15 µM (SK-MEL-3; cell viability, MTT; 24 h).
